# Results gathered from unrelated publications.
# Numbers after ± are the reported error.
# KCNT1: Potassium channel subfamily T member 1 (KCNT1, Homo sapiens, UniProt Q5JUK3)
# CFTR del508-508: Cystic fibrosis transmembrane conductance regulator (CFTR, Homo sapiens, UniProt P13569, del508-508)
# ERAP1 I681R: Endoplasmic reticulum aminopeptidase 1 (ERAP1, Homo sapiens, UniProt Q9NZ08, I681R)
# YAP1 WW1 domain: Transcriptional coactivator YAP1, WW1 domain (YAP1, Homo sapiens, UniProt P46937)
# Kelch domain-containing protein 2: Kelch domain-containing protein 2 (UniProt Q9Y2U9)
# YAP1 WW2 domain: Transcriptional coactivator YAP1, WW2 domain (YAP1, Homo sapiens, UniProt P46937)
# T1: DNA aptamer, truncated, engineered stem; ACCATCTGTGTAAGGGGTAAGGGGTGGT
# T2: miR-21 precursor (Homo sapiens); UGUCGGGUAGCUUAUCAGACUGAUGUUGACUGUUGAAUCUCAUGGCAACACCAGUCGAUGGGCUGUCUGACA
Molecule,target,assay,system,setting,scale,measurement,value
N[C@@H](Cc1cnc[nH]1)C(=O)O,"HARS1 (Homo sapiens, UniProt P12081, V155G)","thermal stability, DSF",,,,ΔTm,1.3 °C
CCOc1ccccc1S(=O)(=O)N1CC(c2nc(-c3ccsc3)no2)C1,KCNT1,"ion current, activator, automated patch clamp",CHO,30 µM,relative to: bepridil 60 µM,efficacy,100%
Cc1cc(C)c2cc(C#N)c(NCCNC(=O)c3cnccn3)nc2c1,CFTR del508-508,"iodide influx, potentiator",FRT expressing ΔF508-CFTR and YFP,"up to 50 µM, low-temperature rescued, with: forskolin 20 µM",,EC50,inactive
Brc1cccc(SSc2cccc(Br)c2)c1,tubulin,"colchicine binding, [3H]colchicine binding",,"50 µM, 10 min, 37 °C, with: [3H]colchicine 5.0 µM",,inhibition,17 ± 4%
Cc1cc(=O)oc2cc(NC(=O)[C@@H](N)CC(C)C)ccc12,ERAP1 I681R,"hydrolysis of compound, substrate",,"varied from 0 µM, 5 min, pH 8.0, 27 °C, mutant I681R, no peptide activator",,Vmax,210 ± 8 nmol/min/µg
CC(C)C[C@H](NC(=O)[C@@H](NC(=O)[C@@H](N)[C@@H](C)O)C(C)C)C(=O)N1CCC[C@H]1C(=O)N1CCC[C@H]1C(=O)N1CCC[C@H]1C(=O)N1CCC[C@H]1C(=O)N[C@@H](Cc1ccc(O)cc1)C(=O)N[C@@H](C)C(=O)N[C@@H](Cc1c[nH]cn1)C(=O)N[C@@H](CCCNC(=N)N)C(=O)N[C@@H](CC(N)=O)C(=O)O,YAP1 WW1 domain,"binding, ITC",,"pH 7.0, 25 °C, WW1 domain",,TΔS,-3.95 ± 0.42 kcal/mol
Cc1cccnc1Nc1nc2c(s1)CCCCc1nc(NC(=O)C(C)(C)C)sc1-2,CFTR del508-508,"iodide influx, corrector, YFP halide quenching",FRT cells expressing YFP-H148Q/I152L,"16 to 20 h, 37 °C, genistein 50 µM, with: forskolin 20 µM",,Vmax,280 µM/s
CC(=O)C(C)=NO,integrin alphaM beta2 (human),"ligand binding, inhibitor, flow cytometry",human neutrophils,"concentration not given, 1 h, 37 °C, integrin clustering inhibitor, with: Alexa 488-labelled fibrinogen","relative to: no inhibitor, lower means less binding",bound fibrinogen fluorescence,509 ± 72 MFI
LIIGGG,Kelch domain-containing protein 2,native mass spectrometry,"peptide, 200 mM ammonium acetate","20 µM Kelch domain-containing protein 2, pH 7",relative to: total Kelch domain-containing protein 2 signal,fraction of protein bound,3%
O=Cc1c(O)cc(C(F)(F)F)cc1C(F)(F)F,"CD209 antigen (CD209, Homo sapiens, UniProt Q9NNX6)","activator, plate-based HRP",,"500 µM, overnight, 4 °C or RT",relative to: DMSO control,HRP binding,≥ 50%
Nc1ncnc2c1ncn2[C@@H]1O[C@H](COP(=O)(O)OP(=O)(O)OP(=O)(O)O)[C@@H](O)[C@H]1O,"HARS1 (Homo sapiens, UniProt P12081)","thermal stability, DSF",,,,ΔTm,2 °C
CC(C)C[C@H](NC(=O)[C@H](C)NC(=O)[C@@H](N)[C@@H](C)O)C(=O)N1CCC[C@H]1C(=O)N1CCC[C@H]1C(=O)N1CCC[C@H]1C(=O)N1CCC[C@H]1C(=O)N[C@@H](Cc1ccc(O)cc1)C(=O)N[C@@H](CCCNC(=N)N)C(=O)N[C@@H](Cc1c[nH]cn1)C(=O)N[C@@H](CCCNC(=N)N)C(=O)N[C@@H](CC(N)=O)C(=O)O,YAP1 WW1 domain,"binding, ITC",,"pH 7.0, 25 °C, WW1 domain",,ΔH,-16.9 ± 0.64 kcal/mol
IINFEKE,"ERAP1 (Homo sapiens, UniProt Q9NZ08, L733R)",substrate,peptide,"pH 8.0, 27 °C, mutant L733R, with: L-AMC, peptide activator 100 µM",,Hill coefficient,1.4
CC(C)C[C@H](NC(=O)[C@@H](NC(=O)[C@@H](N)[C@@H](C)O)C(C)C)C(=O)N1CCC[C@H]1C(=O)N1CCC[C@H]1C(=O)N1CCC[C@H]1C(=O)N1CCC[C@H]1C(=O)N[C@@H](Cc1ccc(O)cc1)C(=O)N[C@@H](CCCNC(=N)N)C(=O)N[C@@H](C)C(=O)N[C@@H](CCCNC(=N)N)C(=O)N[C@@H](CC(N)=O)C(=O)O,YAP1 WW2 domain,"binding, ITC",,"pH 7.0, 25 °C, WW2 domain",,ΔG,-5.93 ± 0.09 kcal/mol
IINFEKL,ERAP1 I681R,"L-AMC hydrolysis, activator",peptide,"100 µM, 5 min, pH 8.0, 27 °C, mutant I681R, with: L-AMC varied from 0 µM",,Vmax,359 ± 5 nmol/min/µg
GSRPQRLLWQTAVRHITEQRFIHGH,"Calmodulin-1 (Calm1, Rattus norvegicus, UniProt P0DP29)","N-lobe Ca2+ dissociation, stopped-flow with quin-2",peptide,22 °C,,Ca2+ dissociation rate constant,> 500 s⁻¹
CC(C)C[C@H](NC(=O)[C@@H](NC(=O)[C@@H](N)[C@@H](C)O)C(C)C)C(=O)N1CCC[C@H]1C(=O)N1CCC[C@H]1C(=O)N1CCC[C@H]1C(=O)N[C@@H](C)C(=O)N[C@@H](Cc1ccc(O)cc1)C(=O)N[C@@H](CCCNC(=N)N)C(=O)N[C@@H](Cc1c[nH]cn1)C(=O)N[C@@H](CCCNC(=N)N)C(=O)N[C@@H](CC(N)=O)C(=O)O,YAP1 WW1 domain,"binding, ITC",,"pH 7.0, 25 °C, WW1 domain",,ΔH,-12.7 ± 0.49 kcal/mol
O=S(=O)(Sc1ccc(Br)cc1)c1ccc(Br)cc1,tubulin,colchicine binding,,"5 µM, 10 min, 37 °C, with: 5.0 µM [3H]colchicine",,inhibition,6.6 ± 4%
FVFGG,Kelch domain-containing protein 2,native mass spectrometry,"peptide, 200 mM ammonium acetate","20 µM Kelch domain-containing protein 2, pH 7",relative to: total Kelch domain-containing protein 2 signal,fraction of protein bound,0.5%
COc1ccc([C@@H]2CC(=O)c3c(O)cc(O)cc3O2)cc1O,"SULT1A1 (Homo sapiens, UniProt P50225)",substrate,recombinant enzyme,,,substrate inhibition onset,> 16 µM
COc1ccc(C(=O)NCCNc2nc3cc(C)cc(C)c3cc2C#N)cc1,CFTR del508-508,"CFTR correction, corrector, iodide influx rate",FRT expressing YFP-H148Q/I152L,"up to 25 µM, 16-20 h, 37 °C, with: forskolin 20 µM, genistein 50 µM",,Vmax,172 µM/s
O=P(O)(O)C(F)(F)C(F)(F)C(F)(F)C(F)(F)C(F)(F)C(F)(F)C(F)(F)C(F)(F)F,"FABP5 (Homo sapiens, UniProt Q01469)","probe binding, competitive probe labeling LC-MS/MS",HEK293T lysate,"100 µM over 10 µM, desthiobiotin probe",,heavy/light labeling ratio,1.64
CN(C)N=Nc1[nH]cnc1C(N)=O,"T1, DNA aptamer, truncated, engineered stem",electrochemical aptamer sensor,,1 mM,,binding,no binding
CCCCOc1ccccc1S(=O)(=O)N1CC(c2nc(-c3ccsc3)no2)C1,KCNT1,"Tl+ flux, inhibitor",HEK293 expressing KCNT1,30 µM,,activity class,inactive
Oc1ccc(/C=C/c2cc3ccc4cccc5ccc(c2)c3c45)cc1O,"Transthyretin, fibrils (TTR, Homo sapiens, UniProt P02766)","binding, fluorescence emission",,"1 µM, pH 3.0, with: 5 µM fibrils (monomer)",relative to: free compound,fluorescence increase,6.3 fold
CC1(C)CCC(c2ccc(Cl)cc2)=C(CN2CCN(c3ccc(C(=O)NS(=O)(=O)c4ccc(N[C@H](CCN5CCOCC5)CSc5ccccc5)c(S(=O)(=O)C(F)(F)F)c4)cc3)CC2)C1,"T2, miR-21 precursor (Homo sapiens)",DSF,,NaCl 0.25 mM,,binding,no binding
CC(C)C[C@H](NC(=O)[C@@H](NC(=O)[C@@H](N)[C@@H](C)O)C(C)C)C(=O)N[C@@H](C)C(=O)N1CCC[C@H]1C(=O)N1CCC[C@H]1C(=O)N1CCC[C@H]1C(=O)N[C@@H](Cc1ccc(O)cc1)C(=O)N[C@@H](CCCNC(=N)N)C(=O)N[C@@H](Cc1c[nH]cn1)C(=O)N[C@@H](CCCNC(=N)N)C(=O)N[C@@H](CC(N)=O)C(=O)O,YAP1 WW2 domain,"binding, ITC",,"pH 7.0, 25 °C, WW2 domain",,TΔS,-5.29 ± 0.4 kcal/mol
Cc1ncsc1-c1ccc(CNC(=O)[C@@H]2C[C@@H](O)CN2C(=O)[C@@H](NC(=O)COCCOCCOCCOCCOc2cc3nccc(Nc4ccc5scnc5c4)c3cc2S(=O)(=O)C(C)(C)C)C(C)(C)C)cc1,"RIPK2 (Homo sapiens, UniProt O43353)","degrader, immunoblot",THP-1,16 h,,hook effect onset,> 3 µM
O=C(O)c1ccccc1O,"Degenerin mec-4 (mec-4, Caenorhabditis elegans, UniProt P24612, A713T)","ion current, two-electrode voltage clamp",Xenopus oocytes coexpressing MEC-2,"30 µM, -85 mV","relative to: uninjected oocytes, positive inhibition, negative potentiation",current change,-5.39 µA
GGGSGGG,Kelch domain-containing protein 2,native mass spectrometry,"peptide, 200 mM ammonium acetate","20 µM Kelch domain-containing protein 2, pH 7",relative to: total Kelch domain-containing protein 2 signal,fraction of protein bound,4.5%
O=S(=O)(c1cccc2c1OCCC2)N1CC(c2nc(-c3ccc(F)cc3)no2)C1,KCNT1,"ion current, activator, automated patch clamp",CHO,30 µM,relative to: bepridil 60 µM,efficacy,100%
CCCCCCCC/C=C\CCCCCCCC(=O)OC[C@H](COP(=O)(O)OCC(O)COP(=O)(O)OC[C@@H](COC(=O)CCCCCCC/C=C\CCCCCCCC)OC(=O)CCCCCCC/C=C\CCCCCCCC)OC(=O)CCCCCCC/C=C\CCCCCCCC (some centres unmarked),"kcsA (Streptomyces lividans, UniProt P0A334)","channel opening, activator, contact bubble bilayer",POPC bilayer,"25 wt%, pH 4 inside, 7.5 outside, 100 mV",,open probability,30%

# Repeated from above:
Molecule,target,assay,system,setting,scale,measurement,value
Cc1ncsc1-c1ccc(CNC(=O)[C@@H]2C[C@@H](O)CN2C(=O)[C@@H](NC(=O)COCCOCCOCCOCCOc2cc3nccc(Nc4ccc5scnc5c4)c3cc2S(=O)(=O)C(C)(C)C)C(C)(C)C)cc1,"RIPK2 (Homo sapiens, UniProt O43353)","degrader, immunoblot",THP-1,16 h,,hook effect onset,> 3 µM
O=C(O)c1ccccc1O,"Degenerin mec-4 (mec-4, Caenorhabditis elegans, UniProt P24612, A713T)","ion current, two-electrode voltage clamp",Xenopus oocytes coexpressing MEC-2,"30 µM, -85 mV","relative to: uninjected oocytes, positive inhibition, negative potentiation",current change,-5.39 µA
GGGSGGG,Kelch domain-containing protein 2,native mass spectrometry,"peptide, 200 mM ammonium acetate","20 µM Kelch domain-containing protein 2, pH 7",relative to: total Kelch domain-containing protein 2 signal,fraction of protein bound,4.5%
O=S(=O)(c1cccc2c1OCCC2)N1CC(c2nc(-c3ccc(F)cc3)no2)C1,KCNT1,"ion current, activator, automated patch clamp",CHO,30 µM,relative to: bepridil 60 µM,efficacy,100%
CCCCCCCC/C=C\CCCCCCCC(=O)OC[C@H](COP(=O)(O)OCC(O)COP(=O)(O)OC[C@@H](COC(=O)CCCCCCC/C=C\CCCCCCCC)OC(=O)CCCCCCC/C=C\CCCCCCCC)OC(=O)CCCCCCC/C=C\CCCCCCCC (some centres unmarked),"kcsA (Streptomyces lividans, UniProt P0A334)","channel opening, activator, contact bubble bilayer",POPC bilayer,"25 wt%, pH 4 inside, 7.5 outside, 100 mV",,open probability,30%
